Experimental data collected from several papers.
Compare with care: the assays were run in different laboratories. ± marks the error that the study gave.
HDAC8: Histone deacetylase 8 (HDAC8, Homo sapiens, UniProt Q9BY41)
UniProt Q9BY41, sequence (whole entry, looked up): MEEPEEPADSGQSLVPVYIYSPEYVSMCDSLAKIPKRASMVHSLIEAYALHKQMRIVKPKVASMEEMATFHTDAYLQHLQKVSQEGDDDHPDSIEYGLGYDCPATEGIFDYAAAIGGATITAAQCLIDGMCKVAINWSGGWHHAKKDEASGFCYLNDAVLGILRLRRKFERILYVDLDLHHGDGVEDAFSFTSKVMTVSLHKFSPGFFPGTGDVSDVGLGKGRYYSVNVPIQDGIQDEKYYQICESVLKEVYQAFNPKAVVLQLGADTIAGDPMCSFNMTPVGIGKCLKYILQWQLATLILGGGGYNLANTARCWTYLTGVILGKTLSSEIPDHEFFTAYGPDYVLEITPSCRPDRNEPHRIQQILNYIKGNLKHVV
EPHX2: Bifunctional epoxide hydrolase 2 (EPHX2, Homo sapiens, UniProt P34913)
UniProt P34913, sequence (whole entry, looked up): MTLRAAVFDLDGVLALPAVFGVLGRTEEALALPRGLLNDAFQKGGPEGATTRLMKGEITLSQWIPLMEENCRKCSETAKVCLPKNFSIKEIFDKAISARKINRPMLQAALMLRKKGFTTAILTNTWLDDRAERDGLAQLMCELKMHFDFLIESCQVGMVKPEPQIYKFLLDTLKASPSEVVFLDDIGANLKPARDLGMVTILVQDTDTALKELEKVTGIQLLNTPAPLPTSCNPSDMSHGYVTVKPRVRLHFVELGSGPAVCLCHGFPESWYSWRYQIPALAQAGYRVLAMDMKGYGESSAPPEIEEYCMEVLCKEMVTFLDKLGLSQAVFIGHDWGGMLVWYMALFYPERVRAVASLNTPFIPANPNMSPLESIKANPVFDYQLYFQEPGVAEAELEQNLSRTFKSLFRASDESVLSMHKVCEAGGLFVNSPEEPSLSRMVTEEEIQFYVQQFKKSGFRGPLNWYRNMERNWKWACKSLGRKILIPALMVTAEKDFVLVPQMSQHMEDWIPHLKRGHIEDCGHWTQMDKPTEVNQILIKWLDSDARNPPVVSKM
Nr3c1: Glucocorticoid receptor (Nr3c1, Rattus norvegicus, UniProt P06536)
UniProt P06536, sequence (whole entry, looked up): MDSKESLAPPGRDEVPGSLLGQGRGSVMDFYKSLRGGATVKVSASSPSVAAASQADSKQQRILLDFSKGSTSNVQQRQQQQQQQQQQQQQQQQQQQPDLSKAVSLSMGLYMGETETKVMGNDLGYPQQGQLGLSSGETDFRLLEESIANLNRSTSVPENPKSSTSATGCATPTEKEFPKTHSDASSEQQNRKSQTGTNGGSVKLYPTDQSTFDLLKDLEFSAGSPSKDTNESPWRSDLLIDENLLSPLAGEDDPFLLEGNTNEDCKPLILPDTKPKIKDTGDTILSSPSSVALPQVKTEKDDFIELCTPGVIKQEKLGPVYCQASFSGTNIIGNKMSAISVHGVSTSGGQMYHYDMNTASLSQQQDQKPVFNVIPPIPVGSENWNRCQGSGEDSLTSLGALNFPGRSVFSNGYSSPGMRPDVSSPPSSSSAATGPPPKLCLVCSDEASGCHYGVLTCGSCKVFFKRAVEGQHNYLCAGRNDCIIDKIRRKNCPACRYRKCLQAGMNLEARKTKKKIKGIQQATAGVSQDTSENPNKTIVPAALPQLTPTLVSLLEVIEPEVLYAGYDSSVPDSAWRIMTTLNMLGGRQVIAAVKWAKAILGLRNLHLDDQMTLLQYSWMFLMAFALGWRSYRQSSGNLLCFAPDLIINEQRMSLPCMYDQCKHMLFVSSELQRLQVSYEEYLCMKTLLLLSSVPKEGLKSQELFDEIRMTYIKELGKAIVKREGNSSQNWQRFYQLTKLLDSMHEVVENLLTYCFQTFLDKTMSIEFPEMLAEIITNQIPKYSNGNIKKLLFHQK
UniProt P04062, sequence (whole entry, unmodified, looked up): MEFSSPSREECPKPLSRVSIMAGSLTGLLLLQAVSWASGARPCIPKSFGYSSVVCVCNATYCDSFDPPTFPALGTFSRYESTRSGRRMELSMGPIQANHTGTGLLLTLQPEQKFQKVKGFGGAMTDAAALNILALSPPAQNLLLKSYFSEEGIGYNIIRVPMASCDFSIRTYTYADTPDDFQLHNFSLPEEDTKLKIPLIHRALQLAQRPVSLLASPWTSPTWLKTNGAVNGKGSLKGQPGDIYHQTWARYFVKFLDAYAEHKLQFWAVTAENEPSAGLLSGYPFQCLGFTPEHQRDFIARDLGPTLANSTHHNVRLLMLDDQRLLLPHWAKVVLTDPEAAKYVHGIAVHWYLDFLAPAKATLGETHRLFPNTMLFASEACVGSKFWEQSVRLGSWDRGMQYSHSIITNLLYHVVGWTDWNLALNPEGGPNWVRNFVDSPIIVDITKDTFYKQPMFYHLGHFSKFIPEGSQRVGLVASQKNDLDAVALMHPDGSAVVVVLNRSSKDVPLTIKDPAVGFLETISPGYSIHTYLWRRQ
UniProt P08908, sequence (whole entry, looked up): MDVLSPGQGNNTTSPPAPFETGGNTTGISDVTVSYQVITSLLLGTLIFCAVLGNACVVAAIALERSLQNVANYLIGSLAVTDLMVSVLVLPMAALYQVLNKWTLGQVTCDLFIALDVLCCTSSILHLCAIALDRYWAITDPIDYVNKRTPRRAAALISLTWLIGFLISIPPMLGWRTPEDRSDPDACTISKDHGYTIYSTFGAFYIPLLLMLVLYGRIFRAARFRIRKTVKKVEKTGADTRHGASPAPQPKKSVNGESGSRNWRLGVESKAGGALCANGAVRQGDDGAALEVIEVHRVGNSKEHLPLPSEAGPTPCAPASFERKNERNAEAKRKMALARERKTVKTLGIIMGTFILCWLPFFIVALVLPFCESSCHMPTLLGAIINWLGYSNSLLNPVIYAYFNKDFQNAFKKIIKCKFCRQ
UniProt P04762, sequence (whole entry, looked up): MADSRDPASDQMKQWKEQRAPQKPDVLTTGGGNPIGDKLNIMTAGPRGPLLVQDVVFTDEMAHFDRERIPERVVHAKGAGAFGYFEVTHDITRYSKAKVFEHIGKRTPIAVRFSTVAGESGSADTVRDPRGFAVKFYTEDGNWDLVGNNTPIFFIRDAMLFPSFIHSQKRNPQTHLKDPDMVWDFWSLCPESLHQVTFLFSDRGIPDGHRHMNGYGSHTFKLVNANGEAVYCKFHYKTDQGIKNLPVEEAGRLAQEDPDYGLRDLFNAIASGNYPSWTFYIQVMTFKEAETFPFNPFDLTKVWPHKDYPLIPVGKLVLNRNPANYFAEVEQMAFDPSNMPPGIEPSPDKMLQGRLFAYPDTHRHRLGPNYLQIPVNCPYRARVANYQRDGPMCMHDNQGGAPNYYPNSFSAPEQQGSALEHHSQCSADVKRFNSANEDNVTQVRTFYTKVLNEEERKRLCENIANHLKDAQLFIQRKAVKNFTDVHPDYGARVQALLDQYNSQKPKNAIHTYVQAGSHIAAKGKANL
UniProt P00519, sequence (whole entry, looked up): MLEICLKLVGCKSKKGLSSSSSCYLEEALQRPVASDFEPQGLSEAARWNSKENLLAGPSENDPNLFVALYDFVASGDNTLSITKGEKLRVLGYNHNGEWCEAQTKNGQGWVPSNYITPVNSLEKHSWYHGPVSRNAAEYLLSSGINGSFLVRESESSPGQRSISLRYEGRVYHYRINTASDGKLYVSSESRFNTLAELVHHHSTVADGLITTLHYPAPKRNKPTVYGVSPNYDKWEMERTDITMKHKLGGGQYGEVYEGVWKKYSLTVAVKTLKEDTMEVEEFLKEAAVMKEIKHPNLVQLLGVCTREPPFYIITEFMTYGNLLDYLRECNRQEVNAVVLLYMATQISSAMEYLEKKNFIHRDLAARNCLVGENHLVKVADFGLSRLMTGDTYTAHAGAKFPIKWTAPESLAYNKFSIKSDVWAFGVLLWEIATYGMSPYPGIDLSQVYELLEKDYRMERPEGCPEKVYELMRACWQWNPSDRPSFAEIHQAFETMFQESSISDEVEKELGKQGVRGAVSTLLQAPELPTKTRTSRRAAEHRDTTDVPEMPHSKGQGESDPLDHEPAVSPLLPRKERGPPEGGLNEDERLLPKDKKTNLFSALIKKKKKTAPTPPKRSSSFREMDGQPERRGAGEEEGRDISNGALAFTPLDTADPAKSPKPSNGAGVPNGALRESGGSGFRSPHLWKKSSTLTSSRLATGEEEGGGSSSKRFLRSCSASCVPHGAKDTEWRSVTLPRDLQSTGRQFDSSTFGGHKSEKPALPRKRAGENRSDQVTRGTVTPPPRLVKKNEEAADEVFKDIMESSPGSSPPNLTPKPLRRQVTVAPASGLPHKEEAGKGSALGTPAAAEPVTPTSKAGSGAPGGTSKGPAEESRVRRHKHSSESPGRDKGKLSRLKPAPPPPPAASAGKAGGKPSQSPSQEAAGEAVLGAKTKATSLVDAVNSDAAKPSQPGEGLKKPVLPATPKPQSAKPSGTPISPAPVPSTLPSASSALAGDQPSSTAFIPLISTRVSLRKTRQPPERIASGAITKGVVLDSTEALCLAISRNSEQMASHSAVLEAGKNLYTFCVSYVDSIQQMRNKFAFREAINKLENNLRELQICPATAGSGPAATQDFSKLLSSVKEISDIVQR
UniProt P35462, sequence (whole entry, looked up): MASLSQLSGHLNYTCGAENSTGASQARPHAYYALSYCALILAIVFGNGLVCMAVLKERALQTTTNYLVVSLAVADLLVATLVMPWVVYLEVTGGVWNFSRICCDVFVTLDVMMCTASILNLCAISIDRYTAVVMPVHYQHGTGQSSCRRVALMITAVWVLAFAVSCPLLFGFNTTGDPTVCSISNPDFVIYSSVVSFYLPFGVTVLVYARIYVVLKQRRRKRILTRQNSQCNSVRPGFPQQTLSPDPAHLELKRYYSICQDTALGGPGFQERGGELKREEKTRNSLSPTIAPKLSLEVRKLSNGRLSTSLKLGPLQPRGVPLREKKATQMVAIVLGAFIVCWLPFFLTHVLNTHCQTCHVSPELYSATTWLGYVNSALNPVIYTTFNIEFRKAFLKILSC
UniProt P12004, sequence (whole entry, unmodified, looked up): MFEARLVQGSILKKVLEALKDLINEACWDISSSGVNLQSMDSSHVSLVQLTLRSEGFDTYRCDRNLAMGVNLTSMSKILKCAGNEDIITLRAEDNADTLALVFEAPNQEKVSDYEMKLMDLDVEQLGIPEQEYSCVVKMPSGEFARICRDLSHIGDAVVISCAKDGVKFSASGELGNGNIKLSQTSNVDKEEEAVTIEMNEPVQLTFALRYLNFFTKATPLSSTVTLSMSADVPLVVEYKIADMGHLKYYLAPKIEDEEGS

Compound	target	test	system	setting	scale	quantity	result
CC(C)(C)CCN1C[C@@H]2[C@@H](CNC(=O)c3cc(Cl)cc(Cl)c3)[C@@H]2C1.Cl	CACNA1C (Oryctolagus cuniculus, UniProt P15381, V1063M)	calcium current inhibition, whole-cell patch clamp	HEK-293T cells	–	–	Hill slope	0.72 ± 0.29
CCCCCCCCNP(=O)(NCCCCCCCC)O[C@@H]1O[C@H](CO)[C@@H](O)[C@H](O)[C@H]1F	GBA1 (Homo sapiens, UniProt P04062)	enzyme activity, irreversible inhibitor	–	pH 5.5, 37 °C, with: 2,4-dinitrophenyl beta-D-glucopyranoside	–	inactivation rate constant	0.13 min⁻¹
[3H]C(CNC(=O)c1ccc(-c2ccsc2)cc1)C([3H])CN1CCN(c2ccccc2OCCF)CC1 (stereo not drawn)	DRD3 (Homo sapiens, UniProt P35462)	radioligand, saturation binding	HEK293 membranes	–	–	Bmax	1980 fmol/mg protein
O=C([O-])CN(CCN(CC(=O)[O-])Cc1cc(CCC(=O)NCCCCCC(=O)NCCCC[C@H](NC(=O)N[C@@H](CCC(=O)O)C(=O)O)C(=O)O)ccc1O)Cc1cc(CCC(=O)O)ccc1[O-].[68Ga+3]	FOLH1 (Homo sapiens, UniProt Q04609)	PET/CT	prostate cancer patients, all lesion types	mean	–	SUVmax	> 10
CSCC[C@H](NC(=O)[C@H](CO)NC(=O)[C@@H](NC(=O)[C@H](CCC(N)=O)NC(=O)[C@@H](CCCNC(=N)N)NC(=O)[C@@H](CCCNC(=N)N)NC(=O)[C@@H](CCCCN)NC(=O)[C@@H](CCCNC(=N)N)NC(C)=O)[C@@H](C)O)C(=O)N[C@H](C(=O)N[C@@H](CC(=O)O)C(=O)N[C@@H](Cc1ccccc1)C(=O)N[C@@H](Cc1ccc(O)cc1)C(=O)N[C@@H](Cc1c[nH]cn1)C(=O)N[C@@H](CO)C(=O)N[C@H](CCCCN)C(=O)N[C@H](CCCNC(=N)N)C(=O)N[C@H](CCCNC(=N)N)C(N)=O)[C@@H](C)O	PCNA (Homo sapiens, UniProt P12004)	isothermal titration calorimetry	–	concentration not given, pH 7.4, 25 °C, 0 mM NaCl, with: p21 peptide	–	binding enthalpy ΔH	-17.7 ± 0.478 kcal/mol
c1ccc(-c2cc3ccccc3o/c2=N\c2cccnc2)cc1	PTGS1 (Ovis aries, UniProt P05979)	enzyme activity, inhibitor	–	from IC50, T 300 K	–	binding free energy	-11 kcal/mol
O=C(Nc1ccccc1O)c1ccc(-c2ccc(Cl)cc2Cl)o1	Heat shock protein 90, N-terminal domain (Plasmodium falciparum, UniProt Q8IC05)	binding, SPR	–	–	–	koff	8.57e-06 s⁻¹
O=C(Nc1ccccc1)c1cccc([C@@H]2C[C@H]2NC2CCC2)c1 (racemic)	Lysine-specific histone demethylase 1A, with CoREST (KDM1A, Homo sapiens, UniProt O60341)	inhibitor, LC-MS	–	–	baseline: total FAD species	relative N-formyl-FAD adduct	16%
CCOC(=O)CCC(NC(=O)C(NC(=O)c1c(C)nn(-c2ccc(F)cc2)c1C)C(C)C)C(=O)OCC (stereo not drawn)	NOD2 (Homo sapiens, UniProt Q9HC29)	NF-κB reporter gene, agonist	HEK-Blue cells expressing NOD2	10 µM, 16 h	–	activity	active
CCCCCCCC(=O)Nc1ccc(C#N)nc1C	Cocaine esterase (CES2, Homo sapiens, UniProt O00748)	substrate	–	50 µM, pH 8, 37 °C, enzyme purity 4%	–	specific activity	4.4 pmol/min/µg
O=C(CCCCCCS)Nc1ccccc1	HDAC8	ITC	Tris-HCl buffer	concentration not given, pH 7.5, 25 °C	–	binding stoichiometry	1 ± 0.1
CC(C)CCC[C@@H](C)[C@H]1CC[C@H]2[C@@H]3CC=C4C[C@@H](OS(=O)(=O)O)CC[C@]4(C)[C@H]3CC[C@]12C	Prothrombin (F2, Homo sapiens, UniProt P00734)	enzyme activity, inhibitor	–	25 °C	baseline: with 0.02% Tween 80 over without	potency loss	2 fold
O=C(NC[C@@H](Cc1ccc(F)cc1)N1CCC(O)(C(F)(F)F)CC1)C1(c2ccc(Cl)cc2)CCCC1	TRPA1 (Homo sapiens, UniProt O75762)	calcium influx, agonist	HEK293F transfected	–	baseline: AITC 300 µM	Emax	46 ± 1.3%
CS(=O)(=O)CCC1NC(=O)C(Cc2ccco2)NC(=O)C(CC2CC2)NC(=O)C=CC(=O)NC(C(N)=O)CCNC1=O (stereo not drawn)	MAP2K6 (Homo sapiens, UniProt P52564)	DNA-templated library selection	–	one selection round	–	enrichment factor	1.4
CCC(C)C(=O)N1CCN(C(=O)c2ccc(NC(=O)NC34CC5CC(C)(CC(C)(C5)C3)C4)cc2)CC1 (stereo not drawn)	EPHX2	–	–	–	–	lipophilic ligand efficiency	5.53
CCCCCCCCSc1nc2c([nH]1)c(=O)n(C)c(=O)n2C	Nr3c1	reporter gene, antagonist, MMTV-luciferase	T47D/A1-2	10 µM, 24 h, with: 5 nM dexamethasone	baseline: maximal activity	remaining activity	92%
N#CCCN1CCN(C(=S)c2ccc(-c3cc(Cl)ccc3Cl)o2)CC1	NPR2 (Homo sapiens, UniProt P20594)	HTRF, refers to: cGMP	HEK293 overexpressing GC-B	with: subthreshold CNP	baseline: saturating CNP	Emax	137%
O=C(/C=C/c1ccc(O)c(O)c1)OCCCC[P+](c1ccccc1)(c1ccccc1)c1ccccc1	Catalase (Rattus norvegicus, UniProt P04762)	–	rat mitochondria	10 µM, 15 and 30 min	–	catalase activity	increased
O=S1(=O)O[C@@H]2[C@H](CO)[C@@H](O)[C@H](O)[C@@H](O)[C@@H]2O1	GBA1 (Homo sapiens, UniProt P04062, R534H)	β-glucosidase activity, irreversible inhibitor	–	pH 5.2, 37 °C, with: 2,4-DNP-β-Glc substrate	–	kinact/KI	0.0717 M⁻¹ s⁻¹
C[C@@]1(CCCN2CCN(c3ccccn3)CC2)Cc2cc(Cl)ccc2C1=O	HTR1A (Homo sapiens, UniProt P08908)	binding, radioligand binding	HEK293, membranes	with: [3H]8-OH-DPAT	–	Hill slope	-0.58 ± 0.06
CCCCCSc1nc2c([nH]1)c(=S)n(C)c(=S)n2C	Nr3c1	reporter gene, antagonist, MMTV-luciferase	T47D/A1-2	10 µM, 24 h, with: 5 nM dexamethasone	baseline: maximal activity	remaining activity	79%
O=P(O)(O)O[C@@H]1[C@@H](O)[C@H](O)[C@H](O)[C@H](O)[C@H]1OP(=O)(O)O	Itpr1 (Rattus norvegicus, UniProt P29994)	–	DT40-IP3R1, permeabilized	–	baseline: ATP-dependent Ca2+ uptake	maximal Ca2+ release	73 ± 7%
CC12CC3CC(C)(C1)CC(NC(=O)Nc1ccc(C(=O)N4CCC(C(=O)NC5CC5)CC4)cc1)(C3)C2	EPHX2	–	–	–	–	lipophilic ligand efficiency	5.86
CCc1nc2cc3ccccc3cc2cc1C(=O)N1CCC[C@H]1C(=O)N[C@@H](C/C=C/C[C@H](NC(=O)[C@@H]1CCCN1C(=O)c1cc2cc3ccccc3cc2nc1CC)C(=O)N[C@@H](CCCCN)C(=O)NCCCN)C(=O)N[C@@H](CCCCN)C(=O)NCCCN	CUG–CAG duplex RNA	SPR	–	–	–	residence time	180 s
O=C(CCCCCCNCc1ccccc1)NO	HDAC8	inhibitor	–	–	baseline: IC50 HDAC8 over HDAC1	selectivity ratio	5.3
CCCCCCCCCCCCSc1nc2c([nH]1)c(=S)n(C)c(=O)n2C	Nr3c1	reporter gene, antagonist, MMTV-luciferase	T47D/A1-2	10 µM, 24 h, with: 5 nM dexamethasone	baseline: maximal activity	remaining activity	98%
Cc1nc(Nc2ncc(C(=O)Nc3c(C)cccc3Cl)s2)cc(N2CCN(C(=O)CN)CC2)n1	Breakpoint cluster region protein/Tyrosine-protein kinase ABL1 (Homo sapiens, UniProt P00519+P11274)	degrader	KU812	20 nM	–	onset of degradation	1 h

Excerpt of the above:
Compound	target	test	system	setting	scale	quantity	result
CCCCCCCCSc1nc2c([nH]1)c(=O)n(C)c(=O)n2C	Nr3c1	reporter gene, antagonist, MMTV-luciferase	T47D/A1-2	10 µM, 24 h, with: 5 nM dexamethasone	baseline: maximal activity	remaining activity	92%
N#CCCN1CCN(C(=S)c2ccc(-c3cc(Cl)ccc3Cl)o2)CC1	NPR2 (Homo sapiens, UniProt P20594)	HTRF, refers to: cGMP	HEK293 overexpressing GC-B	with: subthreshold CNP	baseline: saturating CNP	Emax	137%
O=C(/C=C/c1ccc(O)c(O)c1)OCCCC[P+](c1ccccc1)(c1ccccc1)c1ccccc1	Catalase (Rattus norvegicus, UniProt P04762)	–	rat mitochondria	10 µM, 15 and 30 min	–	catalase activity	increased
O=S1(=O)O[C@@H]2[C@H](CO)[C@@H](O)[C@H](O)[C@@H](O)[C@@H]2O1	GBA1 (Homo sapiens, UniProt P04062, R534H)	β-glucosidase activity, irreversible inhibitor	–	pH 5.2, 37 °C, with: 2,4-DNP-β-Glc substrate	–	kinact/KI	0.0717 M⁻¹ s⁻¹
